Measured values pooled from the literature.
Every numbered part comes from another study and shows a few of its results, in no order. Several values in a cell are separate wells, animals, samples, runs or records.
Sequence of UniProt P25100 (whole entry, looked up): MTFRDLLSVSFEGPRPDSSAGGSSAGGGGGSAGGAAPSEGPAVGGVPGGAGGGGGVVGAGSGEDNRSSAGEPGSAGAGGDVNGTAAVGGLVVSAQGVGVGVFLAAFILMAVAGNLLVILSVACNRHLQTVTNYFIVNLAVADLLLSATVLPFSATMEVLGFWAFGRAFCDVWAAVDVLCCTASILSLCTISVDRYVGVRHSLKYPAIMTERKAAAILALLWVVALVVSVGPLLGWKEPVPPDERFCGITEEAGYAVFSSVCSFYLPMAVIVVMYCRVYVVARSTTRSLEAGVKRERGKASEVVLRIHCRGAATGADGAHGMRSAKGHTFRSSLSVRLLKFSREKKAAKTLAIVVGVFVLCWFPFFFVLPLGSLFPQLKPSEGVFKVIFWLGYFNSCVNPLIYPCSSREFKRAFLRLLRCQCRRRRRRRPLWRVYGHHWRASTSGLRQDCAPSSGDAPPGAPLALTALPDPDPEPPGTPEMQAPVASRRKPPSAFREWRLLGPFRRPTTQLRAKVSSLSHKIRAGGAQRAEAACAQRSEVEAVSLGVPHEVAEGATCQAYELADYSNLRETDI
Sequence of UniProt Q9H3N8 (whole entry, looked up): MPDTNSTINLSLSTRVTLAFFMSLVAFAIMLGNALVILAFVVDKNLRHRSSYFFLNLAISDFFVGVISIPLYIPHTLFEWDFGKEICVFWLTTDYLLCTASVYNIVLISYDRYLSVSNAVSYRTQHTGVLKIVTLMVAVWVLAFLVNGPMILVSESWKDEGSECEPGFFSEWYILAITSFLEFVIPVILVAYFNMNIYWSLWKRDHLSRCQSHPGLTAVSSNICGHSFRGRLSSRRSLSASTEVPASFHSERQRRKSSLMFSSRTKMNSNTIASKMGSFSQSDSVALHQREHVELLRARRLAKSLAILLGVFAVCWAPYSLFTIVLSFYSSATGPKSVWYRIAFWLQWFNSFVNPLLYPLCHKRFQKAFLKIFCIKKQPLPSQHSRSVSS
Sequence of UniProt P18825 (whole entry, looked up): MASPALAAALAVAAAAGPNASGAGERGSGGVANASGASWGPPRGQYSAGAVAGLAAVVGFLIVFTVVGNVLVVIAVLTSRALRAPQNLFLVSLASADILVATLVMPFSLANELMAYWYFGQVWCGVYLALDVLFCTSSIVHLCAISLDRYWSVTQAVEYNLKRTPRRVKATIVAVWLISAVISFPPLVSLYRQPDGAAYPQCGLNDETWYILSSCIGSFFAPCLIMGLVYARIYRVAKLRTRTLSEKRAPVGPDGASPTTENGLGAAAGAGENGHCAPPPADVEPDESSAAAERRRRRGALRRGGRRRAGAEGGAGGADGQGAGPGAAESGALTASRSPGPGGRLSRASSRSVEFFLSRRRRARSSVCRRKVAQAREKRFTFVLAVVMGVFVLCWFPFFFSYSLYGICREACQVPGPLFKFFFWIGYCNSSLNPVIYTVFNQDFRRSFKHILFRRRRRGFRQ
Sequence of UniProt P14416 (whole entry, looked up): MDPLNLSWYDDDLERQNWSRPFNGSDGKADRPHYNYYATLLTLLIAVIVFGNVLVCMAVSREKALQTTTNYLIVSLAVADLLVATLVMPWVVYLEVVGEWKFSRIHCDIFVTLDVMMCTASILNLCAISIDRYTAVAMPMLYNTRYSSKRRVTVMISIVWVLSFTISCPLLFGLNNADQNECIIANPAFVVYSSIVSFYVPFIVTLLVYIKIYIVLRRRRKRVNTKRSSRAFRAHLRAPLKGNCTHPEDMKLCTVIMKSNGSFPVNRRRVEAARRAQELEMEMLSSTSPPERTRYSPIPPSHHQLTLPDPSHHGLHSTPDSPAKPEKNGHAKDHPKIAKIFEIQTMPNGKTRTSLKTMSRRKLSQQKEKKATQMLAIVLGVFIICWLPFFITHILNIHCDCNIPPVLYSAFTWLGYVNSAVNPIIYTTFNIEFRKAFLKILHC
Sequence of UniProt P21917 (whole entry, looked up): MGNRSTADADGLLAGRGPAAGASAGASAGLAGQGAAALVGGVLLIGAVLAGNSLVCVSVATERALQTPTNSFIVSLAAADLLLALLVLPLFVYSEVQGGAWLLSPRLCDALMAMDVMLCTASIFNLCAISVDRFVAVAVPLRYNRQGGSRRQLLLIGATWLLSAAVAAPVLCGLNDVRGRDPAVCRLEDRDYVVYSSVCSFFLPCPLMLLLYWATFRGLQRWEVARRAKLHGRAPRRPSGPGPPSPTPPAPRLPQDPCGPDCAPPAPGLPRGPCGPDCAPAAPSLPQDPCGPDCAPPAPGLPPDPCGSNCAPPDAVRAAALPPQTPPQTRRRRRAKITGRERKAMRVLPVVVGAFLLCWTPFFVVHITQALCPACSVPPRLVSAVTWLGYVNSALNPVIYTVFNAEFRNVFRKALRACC
Sequence of UniProt P35368 (whole entry, looked up): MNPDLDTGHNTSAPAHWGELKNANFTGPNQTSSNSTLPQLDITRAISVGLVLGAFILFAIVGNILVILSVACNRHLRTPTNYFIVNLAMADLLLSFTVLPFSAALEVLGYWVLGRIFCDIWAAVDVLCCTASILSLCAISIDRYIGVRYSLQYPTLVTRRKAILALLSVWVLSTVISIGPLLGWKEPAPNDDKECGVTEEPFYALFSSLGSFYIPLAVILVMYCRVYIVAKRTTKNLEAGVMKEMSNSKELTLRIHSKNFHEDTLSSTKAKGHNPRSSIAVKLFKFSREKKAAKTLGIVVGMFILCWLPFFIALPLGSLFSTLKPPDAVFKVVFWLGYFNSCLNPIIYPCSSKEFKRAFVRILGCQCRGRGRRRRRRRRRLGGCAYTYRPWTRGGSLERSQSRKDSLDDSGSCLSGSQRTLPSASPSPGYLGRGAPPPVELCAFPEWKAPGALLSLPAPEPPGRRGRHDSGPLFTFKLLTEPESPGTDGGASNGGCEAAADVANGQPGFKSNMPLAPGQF
Sequence of UniProt P28222 (whole entry, looked up): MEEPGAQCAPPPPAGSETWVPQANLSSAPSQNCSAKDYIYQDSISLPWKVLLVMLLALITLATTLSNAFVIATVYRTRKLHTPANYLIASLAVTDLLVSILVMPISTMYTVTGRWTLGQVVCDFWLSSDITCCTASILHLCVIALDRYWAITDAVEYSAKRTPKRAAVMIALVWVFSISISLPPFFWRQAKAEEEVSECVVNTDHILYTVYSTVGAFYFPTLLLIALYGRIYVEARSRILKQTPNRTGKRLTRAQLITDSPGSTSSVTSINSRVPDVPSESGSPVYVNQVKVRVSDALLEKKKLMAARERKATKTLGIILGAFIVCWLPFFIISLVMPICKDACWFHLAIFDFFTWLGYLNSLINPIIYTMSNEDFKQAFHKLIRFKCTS
Sequence of UniProt P35462 (whole entry, looked up): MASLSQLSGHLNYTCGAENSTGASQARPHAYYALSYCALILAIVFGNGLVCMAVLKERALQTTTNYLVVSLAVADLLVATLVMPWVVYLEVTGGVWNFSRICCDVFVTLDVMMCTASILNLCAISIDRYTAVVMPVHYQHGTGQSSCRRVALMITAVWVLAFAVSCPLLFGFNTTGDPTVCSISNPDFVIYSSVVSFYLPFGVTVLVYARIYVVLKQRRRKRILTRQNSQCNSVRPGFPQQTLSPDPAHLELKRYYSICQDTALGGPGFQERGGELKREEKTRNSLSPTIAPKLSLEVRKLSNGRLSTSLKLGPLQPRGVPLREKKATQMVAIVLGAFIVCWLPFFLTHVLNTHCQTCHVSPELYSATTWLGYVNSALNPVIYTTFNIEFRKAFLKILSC

Set 1 — tested at: 10 µM
SMILES: COc1ccc2c(c1)O[C@H](c1ccc(OC)c(OC)c1)C[C@@H]2NC(=O)C1(c2ccc3c(c2)OC(F)(F)O3)CC1
target	assay	inhibition [%]
Alpha-1B adrenergic receptor (ADRA1B, Homo sapiens, UniProt P35368)	cell-free assay	49
5-hydroxytryptamine receptor 1B (HTR1B, Homo sapiens, UniProt P28222)	binding, radioligand binding	-0.84
Alpha-1D adrenergic receptor (ADRA1D, Homo sapiens, UniProt P25100)	cell-free assay	2.75
Histamine H4 receptor (HRH4, Homo sapiens, UniProt Q9H3N8)	cell-free assay	-2.97
D(3) dopamine receptor (DRD3, Homo sapiens, UniProt P35462)	cell-free assay	-1.53
Alpha-2C adrenergic receptor (ADRA2C, Homo sapiens, UniProt P18825)	cell-free assay	15.8
D(4) dopamine receptor (DRD4, Homo sapiens, UniProt P21917)	cell-free assay	-7.47
D(2) dopamine receptor (DRD2, Homo sapiens, UniProt P14416)	cell-free assay	2.62

Set 2 — cell line: mouse MPNST tumor cells; technique: high-content immunofluorescence imaging; measured: nuclear SOX9; tested at: 10 µM; time: 12 h; notes: mean of 2 replicates; relative to: DMSO control; reading: higher = more nuclear SOX9
Compound	nuclear SOX9 intensity
CC1=Nc2ccc(Cl)cc2S(=O)(=O)N1	109 % of DMSO and 90 % of DMSO and 99.9 % of DMSO
CO[C@@H]1[C@@H](OC(N)=O)[C@@H](O)[C@H](Oc2ccc3c(O)c(NC(=O)c4ccc(O)c(CC=C(C)C)c4)c(=O)oc3c2C)OC1(C)C	118 % of DMSO
CCOCCn1c(N2CCCN(C)CC2)nc2ccccc21	124 % of DMSO
CN[C@H](CC(C)C)C(=O)N[C@H]1C(=O)N[C@@H](CC(N)=O)C(=O)N[C@H]2C(=O)N[C@H]3C(=O)N[C@H](C(=O)N[C@H](C(=O)O)c4cc(O)cc(O)c4-c4cc3ccc4O)[C@H](O)c3ccc(c(Cl)c3)Oc3cc2cc(c3O[C@@H]2O[C@H](CO)[C@@H](O)[C@H](O)[C@H]2O[C@H]2C[C@](C)(N)[C@H](O)[C@H](C)O2)Oc2ccc(cc2Cl)[C@H]1O	101 % of DMSO
N[C@@H](CCC(=O)N[C@@H](CSN=O)C(=O)NCC(=O)O)C(=O)O	90.6 % of DMSO

Set 3 — organism: Sarcocystis neurona; read-out: parasite activity; tested at: 10 µM; time: 96 h
SMILES	activity class
C[C@@H]1C[C@H]2[C@@H]3CCC4=CC(=O)C=C[C@]4(C)[C@@]3(F)[C@@H](O)C[C@]2(C)[C@@]1(O)C(=O)CO	inactive
N[C@@H](Cc1cc(I)c(Oc2cc(I)c(O)c(I)c2)c(I)c1)C(=O)O	inactive
COc1cc([C@@H]2c3cc4c(cc3[C@H](O)[C@H]3COC(=O)[C@H]23)OCO4)cc(OC)c1OC	inactive
CN1CCN(C2=Nc3cc(F)ccc3Cc3ccccc32)CC1	inactive
O=C(CCCN1CC=C(n2c(=O)[nH]c3ccccc32)CC1)c1ccc(F)cc1	inactive
CN(C)CCCN1c2ccccc2CCc2ccc(Cl)cc21	inactive
CC(=O)O[C@]1(C(C)=O)CC[C@H]2[C@@H]3C=C(C)C4=CC(=O)CC[C@]4(C)[C@H]3CC[C@@]21C	inactive
CN(C)[C@@H]1C(O)=C(C(N)=O)C(=O)[C@@]2(O)C(O)=C3C(=O)c4c(O)cccc4[C@@](C)(O)[C@H]3C[C@@H]12	inactive
Cc1ccc(O)c([C@H](CCN(C(C)C)C(C)C)c2ccccc2)c1	inactive
C#C[C@]1(O)CC[C@H]2[C@@H]3CCC4=CC(=O)CC[C@@H]4[C@H]3CC[C@@]21C	inactive

Set 4 — technique: phase 2a trial; host: idiopathic pulmonary fibrosis patients
Structure (SMILES): CC(C)n1cnc(-c2ccc(F)cc2)c1-c1ncc(C(=O)Nc2ccc(N3CCN(C)CC3)cc2)[nH]1
assay	conditions	adverse event incidence
measured: synovitis	60 mg once daily, grade 1	0%
measured: ventricular extrasystoles	dose not given, grade 2, all arms pooled	0%
measured: general and administration site disorders	30 mg once daily, grade 4	0%
measured: synovitis	dose not given, grade 1, all arms pooled	0%

Some of these lines once more (set 2):
Compound	nuclear SOX9 intensity
CO[C@@H]1[C@@H](OC(N)=O)[C@@H](O)[C@H](Oc2ccc3c(O)c(NC(=O)c4ccc(O)c(CC=C(C)C)c4)c(=O)oc3c2C)OC1(C)C	118 % of DMSO
CC1=Nc2ccc(Cl)cc2S(=O)(=O)N1	109 % of DMSO and 90 % of DMSO and 99.9 % of DMSO
N[C@@H](CCC(=O)N[C@@H](CSN=O)C(=O)NCC(=O)O)C(=O)O	90.6 % of DMSO
CN[C@H](CC(C)C)C(=O)N[C@H]1C(=O)N[C@@H](CC(N)=O)C(=O)N[C@H]2C(=O)N[C@H]3C(=O)N[C@H](C(=O)N[C@H](C(=O)O)c4cc(O)cc(O)c4-c4cc3ccc4O)[C@H](O)c3ccc(c(Cl)c3)Oc3cc2cc(c3O[C@@H]2O[C@H](CO)[C@@H](O)[C@H](O)[C@H]2O[C@H]2C[C@](C)(N)[C@H](O)[C@H](C)O2)Oc2ccc(cc2Cl)[C@H]1O	101 % of DMSO
